Values quoted from earlier work as cited in several papers.
Each line is one published result; not all experiments were run side by side. Ends that are not written are not given here.

For `CCOC(=O)[C@]1(c2ccccc2)N=C(c2ccccc2)N(Cc2ccccc2)[C@@H]1c1ccccc1`, the EC50 was 2500 nM (NF-κB transcription; reporter gene, inhibitor, luciferase reporter).
With `CCc1cnc(N2CCC(c3nc(COc4ccc(-n5cnnn5)cc4)cs3)CC2)nc1` the EC50 was 8.33 nM (GPR119; cAMP accumulation, agonist; HEK293 transfected with GPR119).
`NC(=O)[C@]1(c2ccccc2)N=C(c2ccccc2)N(Cc2ccccc2)[C@@H]1c1ccccc1` gave an EC50 of over 20000 nM (NF-κB transcription; reporter gene, inhibitor, luciferase reporter).
For `CCCC/C=C\CCCCCCCC=O`, the EC50 was 6200 nM (Heliothis virescens OR6 with Orco; ion current, agonist, two-electrode voltage clamp; Xenopus oocytes; holding potential -80 mV).
`CC(=NNc1c(Cl)cc(Cl)cc1Cl)c1cc(Cl)ccc1O` gave an EC50 of 4000 to 5000 nM (mitofusin; mitochondrial fusion, activator).
With `CCC(C)c1c(O)ccc2c1CC[C@@H]1[C@@H]2CC[C@]2(C)C(=O)CC[C@@H]12` (stereo partly drawn) the EC50 was over 10000 nM (oestrogen receptor alpha; binding, competition binding).
`CN1CCN(C2=Nc3ccccc3Oc3ccc(Cl)cc32)CC1` has an EC50 of 20700 nM (human SLACK (KCNT1); Tl+ flux, activator; HEK293 expressing human SLACK).
`COc1ccc(-c2cccc(C(=O)N(C)C)c2)cc1S(=O)(=O)Nc1cccc(NCCNC(=O)c2ccccc2N(C)C)c1` gave an EC50 of 28 nM (orexin receptor 2; luciferase reporter gene, agonist; CHO cells).
For `C[C@]12CC(O)[C@@H]3c4ccc(O)cc4CC[C@H]3[C@@H]1CCC2=O` (stereo partly drawn), the EC50 was 1200 nM (oestrogen receptor beta; binding, competition binding).
The EC50 of `CCCCCCCCNc1cc(=O)[nH]c(=O)[nH]1` is reported as 512 nM (human GPR84-Gαi fusion protein; agonist; Sf9 membranes).
The EC50 of `C[C@]12CC=C3c4ccc(O)cc4CC[C@H]3[C@@H]1CC[C@@H]2O` is reported as 3.98 nM (oestrogen receptor alpha; binding, competition binding).
With `GSSFLSPEHQRVQQRKESKKPPAKLQPR (ghrelin; ends and bridges not checked; sequence looked up)` the EC50 was 1.6 nM (GHSR1a; receptor activation, agonist; peptide).
